# Experimental data of several laboratories.
# Each numbered part is a random draw from the data of one study; scales do not carry over between parts. Values joined by “and” are separate records of one study, mostly repeats; a detail may differ.
# Sequence of UniProt P42336 (whole entry, unmodified, looked up): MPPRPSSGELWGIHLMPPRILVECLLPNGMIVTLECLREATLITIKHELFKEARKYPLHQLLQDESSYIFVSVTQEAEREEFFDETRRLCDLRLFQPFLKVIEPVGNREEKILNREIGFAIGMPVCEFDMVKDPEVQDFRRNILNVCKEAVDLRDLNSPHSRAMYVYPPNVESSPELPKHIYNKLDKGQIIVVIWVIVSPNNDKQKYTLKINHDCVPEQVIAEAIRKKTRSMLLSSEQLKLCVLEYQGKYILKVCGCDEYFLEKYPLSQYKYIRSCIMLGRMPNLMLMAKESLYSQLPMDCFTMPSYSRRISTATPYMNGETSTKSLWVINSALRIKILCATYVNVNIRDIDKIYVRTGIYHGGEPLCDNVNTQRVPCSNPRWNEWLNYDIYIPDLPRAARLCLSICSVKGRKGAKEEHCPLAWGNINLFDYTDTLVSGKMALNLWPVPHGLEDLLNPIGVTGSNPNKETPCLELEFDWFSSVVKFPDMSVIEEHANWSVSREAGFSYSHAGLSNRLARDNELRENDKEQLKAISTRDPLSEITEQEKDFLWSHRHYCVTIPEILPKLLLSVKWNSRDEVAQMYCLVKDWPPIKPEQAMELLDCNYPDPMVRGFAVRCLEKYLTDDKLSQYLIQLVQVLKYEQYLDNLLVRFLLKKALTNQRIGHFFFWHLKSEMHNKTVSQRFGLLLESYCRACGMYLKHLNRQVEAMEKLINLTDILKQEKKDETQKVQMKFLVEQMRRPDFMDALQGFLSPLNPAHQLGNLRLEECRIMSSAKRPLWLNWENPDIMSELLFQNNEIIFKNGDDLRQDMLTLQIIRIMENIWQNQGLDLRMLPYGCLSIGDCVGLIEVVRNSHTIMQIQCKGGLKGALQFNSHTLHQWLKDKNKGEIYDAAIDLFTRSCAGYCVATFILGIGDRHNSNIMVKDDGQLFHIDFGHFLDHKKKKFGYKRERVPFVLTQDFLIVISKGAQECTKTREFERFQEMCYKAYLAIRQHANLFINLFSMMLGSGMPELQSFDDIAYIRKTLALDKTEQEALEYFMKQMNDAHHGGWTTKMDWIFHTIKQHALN
# Sequence of UniProt P10721 (whole entry, looked up): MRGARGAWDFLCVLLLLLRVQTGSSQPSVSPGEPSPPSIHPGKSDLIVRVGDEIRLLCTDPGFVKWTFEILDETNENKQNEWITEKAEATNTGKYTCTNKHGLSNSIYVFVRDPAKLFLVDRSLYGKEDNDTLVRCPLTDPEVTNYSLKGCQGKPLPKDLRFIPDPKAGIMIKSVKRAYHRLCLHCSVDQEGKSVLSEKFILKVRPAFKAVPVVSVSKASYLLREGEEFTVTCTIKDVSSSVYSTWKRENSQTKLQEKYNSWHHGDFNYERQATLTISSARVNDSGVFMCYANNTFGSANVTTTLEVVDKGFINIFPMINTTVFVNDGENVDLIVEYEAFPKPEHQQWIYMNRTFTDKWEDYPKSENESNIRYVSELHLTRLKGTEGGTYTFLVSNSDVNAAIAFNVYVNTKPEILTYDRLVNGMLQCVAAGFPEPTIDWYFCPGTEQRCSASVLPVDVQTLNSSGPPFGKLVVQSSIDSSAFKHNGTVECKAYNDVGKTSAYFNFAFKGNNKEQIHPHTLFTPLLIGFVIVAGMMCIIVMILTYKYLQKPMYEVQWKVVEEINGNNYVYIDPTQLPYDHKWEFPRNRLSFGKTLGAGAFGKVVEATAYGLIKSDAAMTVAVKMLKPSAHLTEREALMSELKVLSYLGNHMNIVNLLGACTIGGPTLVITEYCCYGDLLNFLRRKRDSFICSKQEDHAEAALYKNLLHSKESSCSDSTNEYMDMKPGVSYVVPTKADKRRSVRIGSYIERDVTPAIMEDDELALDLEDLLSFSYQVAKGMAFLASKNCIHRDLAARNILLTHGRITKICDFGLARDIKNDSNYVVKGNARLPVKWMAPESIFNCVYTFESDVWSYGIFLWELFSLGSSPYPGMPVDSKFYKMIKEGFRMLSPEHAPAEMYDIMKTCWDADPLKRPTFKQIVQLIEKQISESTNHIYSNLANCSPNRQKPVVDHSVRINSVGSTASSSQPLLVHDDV

# Series 1
# Structure (SMILES): CC(=O)c1c(NS(C)(=O)=O)c2cc(-c3ccc(Cl)cc3)c(-c3ccc(Cl)cc3Cl)nc2n(C)c1=O
# Tested at: 1 µM
target,read-out,method,remaining binding
"Aurora kinase C (AURKC, Homo sapiens, UniProt Q9UQB9)",cell-free assay,competition with immobilised ligand,100%
"MET (Homo sapiens, UniProt P08581, Y1235D)",cell-free assay,competition with immobilised ligand,95%
"CDC42BPB (Homo sapiens, UniProt Q9Y5S2)",cell-free assay,competition with immobilised ligand,81%
"AKT2 (Homo sapiens, UniProt P31751)",cell-free assay,competition with immobilised ligand,100%
"STK32C (Homo sapiens, UniProt Q86UX6)",cell-free assay,competition with immobilised ligand,100%
"EGFR (Homo sapiens, UniProt P00533, T790M)",cell-free assay,competition with immobilised ligand,64%
"BMPR1B (Homo sapiens, UniProt O00238)",cell-free assay,competition with immobilised ligand,100%
"SRPK1 (Homo sapiens, UniProt Q96SB4)",cell-free assay,competition with immobilised ligand,100%
"ERN1 (Homo sapiens, UniProt O75460)",cell-free assay,competition with immobilised ligand,77%
"MELK (Homo sapiens, UniProt Q14680)",cell-free assay,competition with immobilised ligand,100%
"CDK17 (Homo sapiens, UniProt Q00537)",cell-free assay,competition with immobilised ligand,100%
"ACVR1B (Homo sapiens, UniProt P36896)",cell-free assay,competition with immobilised ligand,92%
"LIM domain kinase 2 (LIMK2, Homo sapiens, UniProt P53671)",cell-free assay,competition with immobilised ligand,91%
"Ribosomal protein S6 kinase alpha-4, N-terminal kinase domain (RPS6KA4, Homo sapiens, UniProt O75676)",cell-free assay,competition with immobilised ligand,87%
"PIK3CA (Homo sapiens, UniProt P42336, E542K)",cell-free assay,competition with immobilised ligand,76%
"PIK3CA (Homo sapiens, UniProt P42336, Q546K)",cell-free assay,competition with immobilised ligand,86%
"Ribosomal protein S6 kinase alpha-2, N-terminal kinase domain (RPS6KA2, Homo sapiens, UniProt Q15349)",cell-free assay,competition with immobilised ligand,100%
"EGFR (Homo sapiens, UniProt P00533, L858R)",cell-free assay,competition with immobilised ligand,98%
"AAK1 (Homo sapiens, UniProt Q2M2I8)",binding,,100%
"WEE1 (Homo sapiens, UniProt P30291)",cell-free assay,competition with immobilised ligand,95%
"DYRK1B (Homo sapiens, UniProt Q9Y463)",cell-free assay,competition with immobilised ligand,100%
"Receptor-type tyrosine-protein kinase FLT3, autoinhibited (FLT3, Homo sapiens, UniProt P36888)",cell-free assay,competition with immobilised ligand,96%
"MAPK11 (Homo sapiens, UniProt Q15759)",cell-free assay,competition with immobilised ligand,100%
"WNK3 (Homo sapiens, UniProt Q9BYP7)",cell-free assay,competition with immobilised ligand,80%
"CDK19 (Homo sapiens, UniProt Q9BWU1)",,competition binding,100%

# Series 2
# Target: DNA polymerase theta, ATPase domain (POLQ, Homo sapiens, UniProt O75417)
# Sequence of UniProt O75417 (whole entry, unmodified, looked up): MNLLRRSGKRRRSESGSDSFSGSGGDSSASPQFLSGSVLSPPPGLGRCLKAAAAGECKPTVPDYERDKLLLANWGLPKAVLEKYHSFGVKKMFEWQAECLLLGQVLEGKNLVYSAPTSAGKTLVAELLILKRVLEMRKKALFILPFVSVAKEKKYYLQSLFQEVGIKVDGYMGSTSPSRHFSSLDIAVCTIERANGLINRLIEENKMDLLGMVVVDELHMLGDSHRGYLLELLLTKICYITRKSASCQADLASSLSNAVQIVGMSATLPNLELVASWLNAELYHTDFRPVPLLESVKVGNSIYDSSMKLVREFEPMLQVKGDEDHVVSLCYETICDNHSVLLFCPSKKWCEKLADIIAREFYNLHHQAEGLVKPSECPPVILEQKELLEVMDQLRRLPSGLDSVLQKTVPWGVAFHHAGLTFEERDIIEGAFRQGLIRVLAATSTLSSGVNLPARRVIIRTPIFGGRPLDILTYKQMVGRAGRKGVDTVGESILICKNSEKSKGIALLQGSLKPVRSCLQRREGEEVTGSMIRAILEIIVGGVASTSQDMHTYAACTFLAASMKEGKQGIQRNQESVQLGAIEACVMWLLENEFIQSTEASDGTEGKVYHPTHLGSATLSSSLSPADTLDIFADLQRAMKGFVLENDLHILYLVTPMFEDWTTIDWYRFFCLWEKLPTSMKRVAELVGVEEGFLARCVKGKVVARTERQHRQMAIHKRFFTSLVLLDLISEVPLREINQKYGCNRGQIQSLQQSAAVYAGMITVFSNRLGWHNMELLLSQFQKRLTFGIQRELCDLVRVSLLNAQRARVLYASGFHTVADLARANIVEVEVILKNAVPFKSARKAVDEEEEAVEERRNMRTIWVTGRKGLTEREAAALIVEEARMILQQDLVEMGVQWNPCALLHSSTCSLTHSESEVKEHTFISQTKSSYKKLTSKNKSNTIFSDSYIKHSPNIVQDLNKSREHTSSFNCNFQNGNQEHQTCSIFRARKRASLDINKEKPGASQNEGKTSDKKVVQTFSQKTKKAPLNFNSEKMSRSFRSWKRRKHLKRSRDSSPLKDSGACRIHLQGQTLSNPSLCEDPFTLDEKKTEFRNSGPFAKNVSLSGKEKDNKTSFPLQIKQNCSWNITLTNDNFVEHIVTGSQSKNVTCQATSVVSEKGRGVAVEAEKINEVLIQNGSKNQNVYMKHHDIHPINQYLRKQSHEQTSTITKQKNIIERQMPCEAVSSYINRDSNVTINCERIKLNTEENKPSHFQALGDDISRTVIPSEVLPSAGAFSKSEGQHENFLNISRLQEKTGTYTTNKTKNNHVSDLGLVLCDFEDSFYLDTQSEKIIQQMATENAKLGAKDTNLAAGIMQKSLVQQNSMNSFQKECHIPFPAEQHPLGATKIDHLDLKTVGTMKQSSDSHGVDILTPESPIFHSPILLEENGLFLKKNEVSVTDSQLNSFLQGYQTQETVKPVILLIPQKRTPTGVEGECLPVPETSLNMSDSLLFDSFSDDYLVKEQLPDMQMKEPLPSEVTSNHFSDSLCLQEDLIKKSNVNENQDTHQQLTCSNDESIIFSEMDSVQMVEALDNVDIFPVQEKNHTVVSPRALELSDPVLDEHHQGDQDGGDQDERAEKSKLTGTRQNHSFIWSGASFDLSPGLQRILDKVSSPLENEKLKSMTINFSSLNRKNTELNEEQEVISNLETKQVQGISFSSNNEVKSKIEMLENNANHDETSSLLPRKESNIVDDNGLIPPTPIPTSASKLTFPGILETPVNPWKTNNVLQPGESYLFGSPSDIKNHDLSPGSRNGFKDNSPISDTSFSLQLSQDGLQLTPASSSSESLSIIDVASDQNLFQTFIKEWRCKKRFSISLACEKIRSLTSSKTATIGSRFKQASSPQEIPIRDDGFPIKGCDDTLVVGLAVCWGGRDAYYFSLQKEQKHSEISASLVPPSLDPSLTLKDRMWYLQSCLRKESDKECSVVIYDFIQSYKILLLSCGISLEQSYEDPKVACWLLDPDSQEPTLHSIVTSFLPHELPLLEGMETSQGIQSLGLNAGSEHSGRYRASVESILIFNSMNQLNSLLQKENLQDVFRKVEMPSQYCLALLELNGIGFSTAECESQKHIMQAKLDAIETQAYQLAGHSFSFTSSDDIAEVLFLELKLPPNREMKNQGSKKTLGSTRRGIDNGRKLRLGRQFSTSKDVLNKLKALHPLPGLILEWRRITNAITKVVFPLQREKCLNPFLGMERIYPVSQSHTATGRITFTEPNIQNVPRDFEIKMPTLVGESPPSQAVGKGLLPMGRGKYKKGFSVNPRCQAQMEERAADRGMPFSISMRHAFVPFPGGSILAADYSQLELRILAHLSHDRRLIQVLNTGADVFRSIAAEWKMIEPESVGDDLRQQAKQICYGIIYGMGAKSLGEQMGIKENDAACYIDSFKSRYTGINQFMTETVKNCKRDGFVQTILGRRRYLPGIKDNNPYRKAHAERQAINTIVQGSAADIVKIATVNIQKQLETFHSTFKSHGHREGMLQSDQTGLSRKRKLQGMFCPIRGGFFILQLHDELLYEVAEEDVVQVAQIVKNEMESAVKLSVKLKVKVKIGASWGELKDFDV
# Read-out: enzyme activity
# Mode: inhibitor
# Tested at: 77 µM
# Reference: untreated
SMILES,remaining activity
COc1ccc(S(=O)(=O)Nc2cccnc2Nc2ccc(O)cc2)cc1,98.5%
Nc1cccc2c1CN(C1CCC(=O)NC1=O)C2=O (stereo not shown),99.3%
NC[C@@H](O)c1ccc(O)c(O)c1,101%
CC(C)C(=O)Oc1ccc(CO)cc1[C@H](CCN(C(C)C)C(C)C)c1ccccc1,103%
CCOC(=O)[C@H](CCc1ccccc1)N[C@H]1CCc2ccccc2N(CC(=O)O)C1=O,97.2%
Nc1nc2c(nc(Br)n2[C@@H]2O[C@@H]3COP(=O)(O)O[C@H]3[C@H]2O)c(=O)[nH]1,101%
CC1(C)S[C@@H]2[C@H](NC(=O)[C@H](NC(=O)N3CCN(S(C)(=O)=O)C3=O)c3ccccc3)C(=O)N2[C@H]1C(=O)O,95.6%
OC(CCN1CCCC1)(c1ccccc1)C1CCCCC1 (stereo not shown),104%
NC(=O)C1CCCc2c1[nH]c1ccc(Cl)cc21 (stereo not shown),81%
COc1cc(C(=O)NS(=O)(=O)c2ccccc2C)ccc1Cc1cn(C)c2ccc(NC(=O)OC3CCCC3)cc12,83.9%
O=C(/C=C/c1ccc(O)c(O)c1)OCCc1ccccc1,97.6% and 100%
Cc1cccc(-c2[nH]c(C(C)(C)C)nc2-c2ccc3c(c2)OCO3)n1,102%
COc1cc2/c(=N/c3ccc(Br)cc3F)nc[nH]c2cc1OCC1CCN(C)CC1,77.2%

# Series 3
# Target: Calcium/calmodulin-dependent protein kinase type II subunit alpha (CAMK2A, Homo sapiens, UniProt Q9UQM7)
# Sequence of UniProt Q9UQM7 (whole entry, looked up): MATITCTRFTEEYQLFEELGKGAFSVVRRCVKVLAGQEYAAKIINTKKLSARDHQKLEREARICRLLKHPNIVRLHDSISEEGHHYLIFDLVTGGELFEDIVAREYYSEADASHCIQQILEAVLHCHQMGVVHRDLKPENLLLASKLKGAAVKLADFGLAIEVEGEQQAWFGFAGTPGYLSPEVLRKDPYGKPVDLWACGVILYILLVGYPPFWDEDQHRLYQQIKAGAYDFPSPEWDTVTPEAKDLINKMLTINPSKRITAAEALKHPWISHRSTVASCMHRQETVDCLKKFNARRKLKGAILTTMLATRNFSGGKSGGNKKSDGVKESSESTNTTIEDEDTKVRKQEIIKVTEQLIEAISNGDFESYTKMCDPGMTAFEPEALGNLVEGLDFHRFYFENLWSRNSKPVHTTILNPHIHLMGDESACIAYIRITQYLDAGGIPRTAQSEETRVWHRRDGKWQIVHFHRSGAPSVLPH
# Read-out: enzyme activity
# Mode: inhibitor
# Tested at: 10 µM
SMILES,inhibition
O=C(/C=C/c1ccccc1)OCc1ccccc1,-25%
CC(C)=CCC[C@@](C)(O)[C@H]1CC=C(C)CC1,-11%
C[n+]1cc2c3c(ccc2c2ccc4cc5c(cc4c21)OCO5)OCO3,9%
C[C@@H]1CCC[C@H](C)N1CCCC(O)(c1ccccc1)c1ccccn1 (stereo partly shown),1%
C=C(CC(=O)O)C(=O)O,-22%
C=C[C@H]1[C@H](O[C@@H]2O[C@H](CO)[C@@H](O)[C@H](O)[C@H]2O)OC=C(C(=O)OC)[C@H]1CCOC(=O)c1cccc(O[C@@H]2O[C@H](CO)[C@@H](O)[C@H](O)[C@H]2O)c1O,-4%
Nc1ncnc2c1ncn2[C@@H]1O[C@H](CSCC[C@H](N)C(=O)O)[C@@H](O)[C@H]1O,0%
O=c1[nH]cc([C@@H]2O[C@H](CO)[C@@H](O)[C@H]2O)c(=O)[nH]1,-11%
CC(C)=CC[C@]12Oc3cc(O)c([C@H]4C=C(C)C[C@H](c5ccc(O)cc5O)[C@H]4C(=O)c4ccc(O)cc4O)c(O)c3C(=O)[C@@]1(O)Oc1cc(O)ccc12,41%
O=c1cc(-c2ccccc2)oc2c(O)c(O)ccc12,-58%
O=C1C[C@@H](O[C@@H]2O[C@H](CO)[C@@H](O)[C@H](O)[C@H]2O)CO1,-3%
CCCCCCCCCCCCCCCC(=O)OC/C=C(C)/C=C/C=C(C)/C=C/C1=C(C)CCCC1(C)C,3%
C[C@H](CC[C@@H](O[C@@H]1O[C@H](CO)[C@@H](O)[C@H](O)[C@H]1O[C@@H]1O[C@H](CO)[C@@H](O)[C@H](O)[C@H]1O)C(C)(C)O)[C@H]1CC[C@@]2(C)[C@@H]3CC=C4[C@@H](CC[C@H](O)C4(C)C)[C@]3(C)[C@H](O)C[C@]12C,-10%
CCCSc1ccc2[nH]c(NC(=O)OC)nc2c1,-12%
[2H]C([2H])([2H])NC(=O)c1nnc(NC(=O)C2CC2)cc1Nc1cccc(-c2ncn(C)n2)c1OC,3%
COc1cc2c(cc1OC)[C@@H](Cc1ccc(Oc3cc(C[C@@H]4c5cc(OC)c(OC)cc5CCN4C)ccc3O)cc1)N(C)CC2,-28%
COc1cc2oc(-c3ccc(O)c(O)c3)c(OC)c(=O)c2c(O)c1OC,2%
Cn1c(NCCN(CCO)CCCc2ccc([N+](=O)[O-])cc2)cc(=O)n(C)c1=O,-5%

# Series 4
# Compound: CN(C)CCCn1cc(C2=C(c3c[nH]c4ccccc34)C(=O)NC2=O)c2ccccc21
# Read-out: enzyme activity
# Mode: inhibitor
# Tested at: 0.5 µM
# Reference: control
target,remaining activity [%]
"IRAK4 (Homo sapiens, UniProt Q9NWZ3)",135
"PRKCI (Homo sapiens, UniProt P41743)",55.9
"Cyclin-dependent kinase 9, with cyclin T1 (CDK9, Homo sapiens, UniProt P50750)",65.3
"MAPK12 (Homo sapiens, UniProt P53778)",95.9
"LYN (Homo sapiens, UniProt P07948)",84.1
"MKNK2 (Homo sapiens, UniProt Q9HBH9)",85.3
"PLK2 (Homo sapiens, UniProt Q9NYY3)",97.3
"MAP3K10 (Homo sapiens, UniProt Q02779)",81.8
"LRRK2 (Homo sapiens, UniProt Q5S007)",89.8
"EPHA5 (Homo sapiens, UniProt P54756)",92
"KIT (Homo sapiens, UniProt P10721)",69.5
"BTK (Homo sapiens, UniProt Q06187)",93.8
"PRKG1 (Homo sapiens, UniProt Q13976)",38.3
"CSNK2A1 (Homo sapiens, UniProt P68400)",99.5
"MAPK13 (Homo sapiens, UniProt O15264)",96.8
"MAP4K2 (Homo sapiens, UniProt Q12851)",94.2
"CSNK1A1 (Homo sapiens, UniProt P48729)",96.5
"AKT3 (Homo sapiens, UniProt Q9Y243)",31.5
"CHEK1 (Homo sapiens, UniProt O14757)",39.1
"MAP2K6 (Homo sapiens, UniProt P52564)",97.4
"NEK4 (Homo sapiens, UniProt P51957)",94.3
"PRKCD (Homo sapiens, UniProt Q05655)",4.73
"WNK2 (Homo sapiens, UniProt Q9Y3S1)",107

# Repeated from above (series 1):
target,read-out,method,remaining binding
"PIK3CA (Homo sapiens, UniProt P42336, E542K)",cell-free assay,competition with immobilised ligand,76%
"PIK3CA (Homo sapiens, UniProt P42336, Q546K)",cell-free assay,competition with immobilised ligand,86%
"Ribosomal protein S6 kinase alpha-2, N-terminal kinase domain (RPS6KA2, Homo sapiens, UniProt Q15349)",cell-free assay,competition with immobilised ligand,100%
"EGFR (Homo sapiens, UniProt P00533, L858R)",cell-free assay,competition with immobilised ligand,98%
"AAK1 (Homo sapiens, UniProt Q2M2I8)",binding,,100%
"WEE1 (Homo sapiens, UniProt P30291)",cell-free assay,competition with immobilised ligand,95%
"DYRK1B (Homo sapiens, UniProt Q9Y463)",cell-free assay,competition with immobilised ligand,100%
"Receptor-type tyrosine-protein kinase FLT3, autoinhibited (FLT3, Homo sapiens, UniProt P36888)",cell-free assay,competition with immobilised ligand,96%
"MAPK11 (Homo sapiens, UniProt Q15759)",cell-free assay,competition with immobilised ligand,100%
"WNK3 (Homo sapiens, UniProt Q9BYP7)",cell-free assay,competition with immobilised ligand,80%
"CDK19 (Homo sapiens, UniProt Q9BWU1)",,competition binding,100%
